Assay results pooled from the literature.
Each line is one published result; not all experiments were run side by side. ± gives the spread as reported. ≈ marks a conversion by molar mass, not a printed value.

OC[C@H]1O[C@@H]([Se]Cc2cccc3c(C[Se][C@@H]4O[C@H](CO)[C@H](O)[C@H](O)[C@H]4O)cccc23)[C@H](O)[C@@H](O)[C@H]1O  viability (Trypanosoma brucei; parasite growth, flow cytometry; 5 µM, 24 h): 96%
COc1ccccc1-c1n[nH]c2nc(N[C@H]3CC[C@H](NS(=O)(=O)CC(C)C)CC3)ncc12  EC50 (Leishmania donovani; LdBOB CRK12 + CYC9 overexpressing, promastigotes): 1.43 ± 0.01 nM
C[C@@H]1C[C@H](Nc2ccccc2)c2cc(F)ccc2N1C(=O)c1ccc(Br)cc1  mortality (Aedes albopictus; 1 µM, 72 h, second-instar larvae; relative to: Abbott-corrected control): 80 ± 1%
Nc1ncnc2c1c(Cl)cn2[C@@H]1O[C@H](CO)[C@@H](O)[C@H]1O  EC50 (Trypanosoma congolense; parasite growth, resazurin; 6C3 diminazene-resistant; 48 h plus 24 h resazurin): 750 ± 140 nM
CC[C@H](C)[C@H](NC(=O)[C@H](CCCCN)NC(=O)[C@H](CCCCN)NC(=O)[C@H](CC(C)C)NC(=O)[C@H](CCCCN)NC(=O)[C@H](CCC(=O)O)NC(=O)[C@H](CCCCN)NC(=O)[C@@H](NC(=O)[C@H](CCCCN)NC(=O)[C@H](CC(N)=O)NC(=O)[C@H](CCCNC(=N)N)NC(=O)[C@H](Cc1ccccc1)NC(=O)[C@H](CCCCN)NC(=O)[C@H](CCCNC(=N)N)NC(=O)[C@H](CC(C)C)NC(=O)[C@H](CCCNC(=N)N)NC(=O)[C@H](CCCCN)NC(=O)[C@H](CCCNC(=N)N)NC(=O)[C@H](CC(C)C)NC(=O)[C@@H](N)CCCNC(=N)N)[C@@H](C)CC)C(=O)NCC(=O)N[C@@H](CCC(N)=O)C(=O)N[C@@H](CCCCN)C(=O)N[C@H](C(=O)N[C@@H](CCC(N)=O)C(=O)NCC(=O)N[C@@H](Cc1ccccc1)C(=O)N[C@H](C(=O)N1CCC[C@H]1C(=O)N[C@@H](CCCCN)C(=O)N[C@@H](CC(C)C)C(=O)N[C@@H](CCC(N)=O)C(=O)N1CCC[C@H]1C(=O)N[C@@H](CO)C(=O)N[C@@H](CCCCN)C(=O)N[C@@H](CCC(N)=O)C(=O)N[C@@H](CO)C(=O)O)C(C)C)[C@@H](C)CC  lethal concentration (Streptococcus mutans; inhibition zone; ATCC 1.2499; LB agar, overnight): 4.97 µM
Nc1ccn(C[C@@H](CO)OCP(=O)(O)OCCCS(=O)(=O)CCCCCCCCCCCCCC2CCC2)c(=O)n1  selectivity index (Murid betaherpesvirus 1; qPCR; MEF, Smith; relative to: CC50 over EC50): > 2170
OC[C@H]1O[C@@H](O[C@H]2[C@H](O)[C@@H](O)[C@H](SCc3ccc(CS[C@@H]4O[C@H](CO)[C@@H](O[C@@H]5O[C@H](CO)[C@H](O)[C@H](O)[C@H]5O)[C@H](O)[C@H]4O)c4ccccc34)O[C@@H]2CO)[C@H](O)[C@@H](O)[C@H]1O  viability (Trypanosoma brucei; parasite growth, flow cytometry; 5 µM, 24 h): 91.1%
CN1CC(=O)N=C1N.C[C@H](CCC(=O)O)[C@H]1CC[C@H]2[C@@H]3[C@@H](O)C[C@@H]4C[C@H](O)CC[C@]4(C)[C@H]3CC[C@]12C  inhibition zone diameter (Bacillus cereus; TISTR 035; 1 mg per disc, 18 to 24 h, 37 °C, 6 mm disc): 8.1 ± 1 mm
O=C1/C(=N\NC(=S)NN=Cc2cccs2)c2ccccc2N1Cc1ccccc1  EC50 (Coxsackievirus B4; viral replication; Vero): > 20000 nM
O=[N+]([O-])c1ccc(/C=N/N=C/c2ccc(O)cc2)s1  day of death (Trypanosoma congolense; IL3000, mouse; intraperitoneal, 10 mg/kg daily for 7 days, from day 4 post-infection): 9 days post-infection
CC(=O)CCC1C(=O)NC(C(C)C)C(=O)NC(Cc2cccc(O)c2)C(=O)N2CCCC(N2)C(=O)OC(C(C)=CC=CC(=O)N2CCCCO2)CC=CC=CC(O)C(C)C1O (stereo not shown)  HBsAg level (hepatitis B virus; HBV DNA transfected cells; 2 µM, day 3; relative to: untreated): 9.6%
COc1ccc2c(c1)c1c3n2C(=O)CCC3N(Cc2ccccc2)CC1 (stereo not shown)  inhibition (canine distemper virus; viral replication; Vero; 10 µM, 24 h): > 90%
Cc1cn(C2CC(N(C)C)C(CO)O2)c(=O)[nH]c1=O (stereo not shown)  EC50 (HIV-2; viral cytopathic effect, MTT; MT-4, ROD): > 460 nM
Cc1cc(N2CCC(C#N)(C3(C)CC3)C2=O)cc(C(=O)NCc2cc(F)cc(-c3cnn(C)c3)c2)n1 (racemic)  day of recrudescence (Plasmodium falciparum; concentration not given): 18 days
CCc1ccc(C(=O)N2c3ccc(F)cc3[C@@H](Nc3ccccc3)C[C@H]2C)cc1  mortality (Aedes albopictus; 1 µM, 72 h, second-instar larvae; relative to: Abbott-corrected control): 91 ± 2%
CS(=O)(=O)c1ccc(/C=N/NC(=O)Cn2ccc(=O)c3ccccc32)cc1  inhibition (Phytophthora capsici; microbial growth; 50 µg/mL): 31%
CC[C@H](C)[C@H](NC(=O)[C@H](CC(C)C)NC(=O)[C@H](Cc1c[nH]cn1)NC(=O)[C@H](Cc1c[nH]cn1)NC(=O)[C@@H](NC(=O)[C@H](Cc1ccccc1)NC(=O)[C@H](CC(N)=O)NC(=O)[C@H](Cc1c[nH]c2ccccc12)NC(=O)[C@@H](NC(=O)[C@H](Cc1c[nH]cn1)NC(=O)[C@H](Cc1c[nH]cn1)NC(=O)[C@H](Cc1c[nH]c2ccccc12)NC(=O)[C@@H](N)CC(C)C)[C@@H](C)CC)C(C)C)C(N)=O  IC50 (Herpes simplex virus 1; virus inactivation, plaque reduction; Vero, F; 37 °C): 0.87 µg/mL (≈ 0.497 µM)
CC[C@H](C)[C@H](NC(=O)[C@@H](NC(=O)CN)C(C)C)C(=O)N[C@@H](Cc1ccccc1)C(=O)N[C@@H](CC(N)=O)C(=O)N[C@@H](C)C(=O)N[C@@H](CC(C)C)C(=O)N[C@@H](CCCCN)C(=O)NCC(=O)N[C@H](C(=O)N[C@@H](C)C(=O)N[C@@H](CCCCN)C(=O)N[C@H](C(=O)N[C@H](C(=O)N[C@@H](C)C(=O)N[C@@H](C)C(=O)N[C@@H](CCC(N)=O)C(=O)N[C@@H](CC(C)C)C(=O)N[C@@H](CC(C)C)C(=O)N[C@@H](CCCCN)C(=O)N[C@@H](CCCCN)C(=O)N[C@@H](C)C(=O)N[C@@H](CCCNC(=N)N)C(=O)N[C@H]1CSSC[C@@H](C(=O)O)NC(=O)[C@H](CO)NC(=O)[C@H](CCCCN)NC(=O)[C@H](CC(=O)O)NC(=O)[C@H](CC(C)C)NC(=O)[C@H](CCCCN)NC1=O)C(C)C)[C@@H](C)O)C(C)C  MIC (Staphylococcus aureus; MRSA NCTC 12493, PBS): 2 µM (≈ 6.35 µg/mL)
Cc1ccc(C(=O)N2c3ccc(F)cc3[C@@H](Nc3ccccc3)C[C@H]2C)cc1  mortality (Aedes albopictus; 1 µM, 72 h, second-instar larvae; relative to: Abbott-corrected control): 83 ± 4%
CCC(NC(=O)NNS(=O)(=O)c1ccc(C)cc1)(C(F)(F)F)C(F)(F)F  antiviral activity (human betaherpesvirus 5; MRC5; concentration not given): inactive
NNC(=O)/C=C/c1ccc(N)cc1  LC90 (Aedes aegypti; larvicidal activity; third instar larvae; 24 h): 306 ppm
CCn1c2ccccc2c2cc(/C=N/NC(=O)Cn3ccc(=O)c4ccccc43)ccc21  inactivation activity (Tobacco mosaic virus; viral infectivity, in vivo plant; 100 µg/mL): 0%

Some of these lines once more:
CS(=O)(=O)c1ccc(/C=N/NC(=O)Cn2ccc(=O)c3ccccc32)cc1  inhibition (Phytophthora capsici; microbial growth; 50 µg/mL): 31%
